Experimental data from different studies.
± gives the spread as reported.

| SMILES | test | system | setting | quantity | value |
| --- | --- | --- | --- | --- | --- |
| Cc1c(P(=S)(c2ccccc2)c2ccccc2)n2ccccc2[n+]1C/C=C/c1ccccc1 | – | mouse, brain | intraperitoneal, 10 mg/kg, 15 min | concentration | 24 ng/g |
| CC(C)C[C@@H]1NC(=O)[C@@H]2CSSC[C@@H](C(=O)NCC(N)=O)NC(=O)[C@H](Cc3ccccc3)NC(=O)CNC(=O)[C@H](CC(N)=O)NC(=O)[C@@H]3CCCN3C(=O)CNC(=O)[C@@H]3CSSC[C@H](NC(=O)[C@H](CO)NC(=O)[C@H]([C@@H](C)O)NC(=O)[C@@H]4CCCN4C(=O)[C@H](C)NC(=O)[C@H](Cc4c[nH]c5ccccc45)NC(=O)[C@H](CC(=O)O)NC(=O)CNC(=O)[C@H](CCCNC(=N)N)NC(=O)CNC(=O)[C@H](CCC(N)=O)NC(=O)[C@@H]4CCCN4C(=O)[C@@H](NC(=O)CNC(=O)c4ccc(F)cc4)CSSC[C@H](NC(=O)CNC(=O)[C@H](C)NC1=O)C(=O)N[C@@H](C(C)C)C(=O)N3)C(=O)N[C@@H](CO)C(=O)N[C@@H](CCC(N)=O)C(=O)N[C@@H](CC(=O)O)C(=O)N[C@@H](CO)C(=O)N[C@@H](CC(=O)O)C(=O)N2 [fluorine-18 labelled] | biodistribution | nude mouse, U-87 MG xenograft, tumour | intravenous, 0.5 h, together with: unlabelled c(RGDyK) 330 µg co-injected | tumour uptake | 0.57 ± 0.14 %ID/g |
| CCCCCOc1ccc(-c2ccc(-c3ccc(C(=O)N[C@H]4C[C@@H](O)[C@@H](O)NC(=O)[C@@H]5[C@@H](O)[C@@H](C)CN5C(=O)[C@H]([C@@H](C)O)NC(=O)[C@H]([C@H](O)[C@@H](O)c5ccc(O)cc5)NC(=O)[C@@H]5C[C@@H](O)CN5C(=O)[C@H]([C@@H](C)O)NC4=O)cc3)cc2)cc1 | population PK model | patients, typical weight sample D kg | intravenous | inter-compartmental clearance | 2.37 L/h |
| C[C@H]1CO[C@@H]2Cn3cc(C(=O)NCc4ccc(F)cc4F)c(=O)c(O)c3C(=O)N12 | – | Indian rhesus macaque, female, Depo-Provera-treated, plasma | intramuscular, 50 mg/kg, 14 weeks after first dose, at first viral RNA detection | plasma concentration | 370 ng/mL |
| CNC(=O)c1ccc(-c2cnn3ccc(C(=O)N(C)c4ccc(Cl)c(C(=O)OC)c4)cc23)cc1 | – | rat, Wistar or Sprague Dawley, male, plasma, jugular vein (systemic) | oral, 100 mg/kg | AUC | 0.039 µM·h |
| CCCCCCCCCC(=O)N[C@@H](Cc1c[nH]c2ccccc12)C(=O)N[C@H](CC(N)=O)C(=O)N[C@@H](CC(=O)O)C(=O)N[C@@H]1C(=O)NCC(=O)N[C@@H](CCCN)C(=O)N[C@@H](CC(=O)O)C(=O)N[C@H](C)C(=O)N[C@@H](CC(=O)O)C(=O)NCC(=O)N[C@H](CO)C(=O)N[C@@H]([C@H](C)CC(=O)O)C(=O)N[C@@H](CC(=O)c2ccccc2N)C(=O)O[C@@H]1C | – | male Wistar rat, plasma | subcutaneous, 50 mg/kg, single dose | Vss | 0.14 ± 0.02 L/kg |
| O[C@H]1CCCN[C@@H]1CCCn1cnc2c(Cl)c(Cl)ccc21 | – | human, plasma | oral, 100 mg single dose, capsule, geometric mean | Vz/F | 1560 L |
| CCc1cccc(C)c1N(C(=O)CCl)C(C)COC (stereo not drawn) | LC-MS/MS | herbicide solution | 2 h, 40 °C, together with: 365 nm UV exposure | remaining amount | 46.7 ± 26.1% |
| c1cc2ccc3cccc4ccc(c1)c2c34 | HPLC-fluorescence | Wistar rat, male, spleen | oral, 4 mg/kg, 24 h | tissue concentration | 26.7 ± 5.2 ng/g |
| CN[C@@](C)(C[18F])C(=O)O | – | SCID mouse DU-145 xenograft, muscle | 60 min, post injection | tissue uptake | 0.7 ± 0.1 %ID/g |
| C[C@H]1N=C(c2ccccc2F)c2cc(Br)ccc2-n2cnc(C(=O)O)c21 | – | Swiss Webster mice, lung | oral, 25 mg/kg, 60 min, PEG400 2.5%, HPMC 98% | concentration | 287 nM |
| O=C(CC(=O)c1ccccc1)c1ccccc1 | – | male Sprague-Dawley rat | oral, 250 mg/kg, regular emulsion | Tmax | 3.33 ± 1.15 h |

A few entries again:
| SMILES | test | system | setting | quantity | value |
| --- | --- | --- | --- | --- | --- |
| C[C@H]1N=C(c2ccccc2F)c2cc(Br)ccc2-n2cnc(C(=O)O)c21 | – | Swiss Webster mice, lung | oral, 25 mg/kg, 60 min, PEG400 2.5%, HPMC 98% | concentration | 287 nM |
